Measurements collected from several papers.
Each line is one published result; not all experiments were run side by side. ± gives the spread as reported.
Target: Mu-type opioid receptor (OPRM1, Homo sapiens, UniProt P35372)
UniProt P35372, sequence (whole entry, looked up): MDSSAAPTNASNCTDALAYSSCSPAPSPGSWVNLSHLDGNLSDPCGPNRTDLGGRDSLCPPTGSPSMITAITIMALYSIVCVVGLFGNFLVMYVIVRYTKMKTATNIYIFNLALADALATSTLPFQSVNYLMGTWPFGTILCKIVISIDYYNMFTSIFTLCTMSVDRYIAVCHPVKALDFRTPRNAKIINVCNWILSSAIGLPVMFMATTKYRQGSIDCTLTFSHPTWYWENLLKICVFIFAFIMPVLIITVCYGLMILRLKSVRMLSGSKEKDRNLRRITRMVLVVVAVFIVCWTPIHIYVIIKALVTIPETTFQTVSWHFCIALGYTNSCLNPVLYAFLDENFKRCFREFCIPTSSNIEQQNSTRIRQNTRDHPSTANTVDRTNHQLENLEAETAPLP

| SMILES | assay | system | setting | how to read | quantity | result |
| --- | --- | --- | --- | --- | --- | --- |
| CCCC[C@H](NC(=O)[C@H](C)c1c(C)[nH]c2ccc(O)cc12)c1ncc(-c2cc3ccccc3nc2OC)[nH]1 | – | – | – | – | Hill coefficient | 0.9 |
| COc1cc(Cl)c(C(=O)N[C@@H](CN[C@H]2CC[C@@H](N)CC2)Cc2ccc(C#N)cc2)cc1-c1ccc(CN[C@H](C)c2ccc(C)cc2)o1 | agonist response, antagonist | – | 10 µM | relative to: agonist control | inhibition | 13% |
| NC(=O)c1nnn(Cc2cc(Cl)c(C(=O)c3ccc(Cl)cc3)c(Cl)c2)c1N | cell-based | – | 10 µM | relative to: control | response | > 50% |
| CN(C(=O)n1cnc(-c2ccc[n+]([O-])c2)c1)C1CCCCC1 | binding | – | 10 µM | – | inhibition | -10.4% |
| O=C(NO)c1ccc(CN2CCCCc3ccccc32)c(F)c1 | radioligand binding, radioligand displacement | – | 10 µM, mean of replicates | – | inhibition | 5.81% |
| CCS(=O)(=O)c1nc(S(=O)(=O)c2ccccc2Cl)c(N2CCN(C)C(=O)[C@H]2C)s1 | – | – | 10 µM | – | inhibition | 7.93% |
| COc1cc(CNCCc2ccccc2)ccc1Oc1ccc(C(N)=O)cn1 | β-arrestin2 recruitment, antagonist, BRET1 | HEK-293T | added: DAMGO EC80 | relative to: naloxone | Imax | 100 ± 3.3% |
| CCCC(CCC)c1nc2c(Nc3ccc(C#CCCCCCCCCN)cc3)nc3ccccc3c2[nH]1 | PDSP screening | – | – | – | off-target affinity | inactive |
| Cc1c(C(=O)NN2CCOCC2)nn(-c2ccc(Cl)cc2Cl)c1-c1ccc(I)cc1 | agonist | CHO expressing OPRM1 | 10 µM, added: forskolin | – | intracellular cAMP level | no effect |
| OCCCN1CC[C@@H]2C[C@H]1c1cc(-c3ccc(C(F)(F)F)cc3)ccc12 | radioligand binding, PDSP competition binding | – | 10 µM | – | inhibition | < 50% |

A few entries again:
| SMILES | assay | system | setting | how to read | quantity | result |
| --- | --- | --- | --- | --- | --- | --- |
| NC(=O)c1nnn(Cc2cc(Cl)c(C(=O)c3ccc(Cl)cc3)c(Cl)c2)c1N | cell-based | – | 10 µM | relative to: control | response | > 50% |
